Results from different studies.
A part holds a random share of what one study measured. Substitutions count along the parent as printed.

Study 1
Target: PABPC1L2, full length, GST fusion (mouse, UniProt A0ABA7IW68)
Technique: RNAcompete
Molecule type: RNA
Sample: in vitro
Concentration: 20 nM
Setting: 7-mer, probes averaged, single round
Reference: mean of 7-mers
Reading: higher = stronger binding
Target sequence (chain): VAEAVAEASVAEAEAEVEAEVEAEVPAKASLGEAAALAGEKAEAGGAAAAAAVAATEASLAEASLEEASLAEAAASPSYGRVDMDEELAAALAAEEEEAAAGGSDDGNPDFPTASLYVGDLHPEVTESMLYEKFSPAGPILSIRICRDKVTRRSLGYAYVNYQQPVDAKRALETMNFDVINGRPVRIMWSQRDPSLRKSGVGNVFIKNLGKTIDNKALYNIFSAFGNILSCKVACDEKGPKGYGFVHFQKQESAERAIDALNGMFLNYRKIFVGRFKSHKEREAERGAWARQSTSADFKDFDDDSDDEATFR
| Strand | 7-mer Z-score |
| --- | --- |
| GGAGCCA | 0.0623 |
| UUGGAUA | 0.133 |
| GUUUCAG | -0.315 |
| UCGUGCG | -0.275 |
| UGGUCUG | -0.273 |
| UUCAGAC | -0.17 |
| CCUGGCA | -0.229 |
| CCACUGU | -0.313 |
| UACCUAG | -0.179 |
| GCAGUAG | -0.164 |
| AUGUAGC | -0.162 |
| AGAUCGA | -0.204 |
| AAUUCCC | -0.0663 |
| GCUCGGA | -0.106 |
| GCAAAUA | 0.318 |
| CCCCGAA | -0.0391 |
| GAAAAAA | 21.2 |
| AGGGCUA | 0.178 |
| ACUGCCU | -0.34 |

Study 2
Target: Max dimerization protein 1, bHLH-zipper, MAX partner unstated (MXD1, Homo sapiens, UniProt Q05195, residues 56-136)
Technique: protein-binding microarray
Molecule type: double-stranded DNA, one strand shown
Sample: in vitro
Concentration: not given
Setting: k-mer, scored over probes, only values ≥0.25
Reading: higher = stronger binding
Construct (chain): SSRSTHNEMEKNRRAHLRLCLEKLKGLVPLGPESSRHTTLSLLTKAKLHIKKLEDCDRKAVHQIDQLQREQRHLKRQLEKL
| Strand | E-score |
| --- | --- |
| CGTGTCTA | 0.308 |
| ATGCTTCC | 0.289 |
| GGGGAGGA | 0.264 |
| CCGCGTGA | 0.365 |
| CCTTGCAC | 0.26 |
| ACAGGTGG | 0.263 |
| CGACCACG | 0.309 |
| ACATGGTC | 0.406 |
| AAATATTA | 0.288 |
| ACGAGGTA | 0.275 |
| CACGAGTC | 0.381 |
| CGTGTACA | 0.268 |
| CCACCCAC | 0.292 |
| CACACGCA | 0.362 |
| AGCGCATG | 0.404 |
| CATGCCGG | 0.299 |
| CGTGCGAG | 0.278 |
| CATGGGGC | 0.318 |
| ACTACACG | 0.283 |
| CACGTGGC | 0.489 |
| CGAACACG | 0.288 |
| CACCTGTC | 0.257 |
| GGGGGGAA | 0.322 |

Study 3
Target: NFE2, bZIP domain (human)
Technique: DHFR protein complementation
Sample: yeast
Setting: single substitutions, most at no-binding floor
Reference: wild-type JUN-FOS pair
Reading: higher = stronger binding
Starting sequence: JUN, bZIP domain (human); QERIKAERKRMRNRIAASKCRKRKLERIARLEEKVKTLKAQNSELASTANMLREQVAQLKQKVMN; partner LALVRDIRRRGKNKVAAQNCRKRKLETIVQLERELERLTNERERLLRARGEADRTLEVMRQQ
| Variant | binding fitness [natural log] |
| --- | --- |
| E44A | -1.48 |
| E33P | -1.49 |
| A29E | -1.21 |
| L31T | -1.58 |
| S43P | -1.52 |
| K36A | -1.47 |
| N42G | -1.5 |
| T48H | -1.45 |
| R53F | -1.45 |
| K34E | -1.55 |
| A49G | -1.45 |
| E54V | -1.31 |
| Q41M | -1.56 |
| L52V | -1.41 |
| E32R | -1.41 |
| E32M | -1.41 |
| R53L | -1.36 |
| T37L | -1.22 |

Study 4
Target: CCND2, cyclin fold, Cln2 fusion (human)
Technique: yeast growth competition, sequencing
Sample: yeast
Setting: weak parent motif
Reference: not given
Reading: higher = stronger binding
Starting sequence: RBL2 docking peptide (human); STTRRRLFVENDS
| Variant | normalised enrichment score |
| --- | --- |
| SWTRRRLFVENDS [T2W] | 0.063 |
| STTRRRLFVVNDS [E10V] | 0.559 |
| STTRRRLFVLNDS [E10L] | -0.117 |
| STTRRRLFVEHDS [N11H] | 0.2 |
| STTDRRLFVENDS [R4D] | -0.517 |
| STTRRRNFVENDS [L7N] | -0.129 |
| STTRRRLFVENDA [S13A] | -0.032 |
| STTIRRLFVENDS [R4I] | 0.0618 |
| STTRRRLAVENDS [F8A] | -0.157 |
| STTSRRLFVENDS [R4S] | -0.198 |
| STTRCRLFVENDS [R5C] | 0.322 |
| STTRARLFVENDS [R5A] | 0.0252 |
| STTRRRLFVENDQ [S13Q] | -0.07 |
| STTRRRLRVENDS [F8R] | 0.127 |
| STTRRRLFVSNDS [E10S] | 0.00613 |
| NTTRRRLFVENDS [S1N] | 0.0671 |
| STTRRRLFVEKDS [N11K] | 0.147 |
| STTRRRLFVENLS [D12L] | -0.42 |
| STTRRTLFVENDS [R6T] | 0.0284 |
| YTTRRRLFVENDS [S1Y] | -0.00153 |
| STTRRRLFVECDS [N11C] | 0.446 |
| FTTRRRLFVENDS [S1F] | 0.0736 |
| STTRRRLEVENDS [F8E] | 0.402 |
| STTRRRLKVENDS [F8K] | 0.288 |
| STTRYRLFVENDS [R5Y] | 0.187 |

Study 5
Target: Interferon regulatory factor 3, full length, phosphomimetic (IRF3, Homo sapiens, UniProt Q14653, residues 1-427, S386D/S396D/S398D/S402D/T404D/S405D)
Technique: protein-binding microarray
Molecule type: double-stranded DNA, one strand shown
Sample: in vitro
Concentration: 2540 nM top
Setting: 60-bp whole probe
Together with: salmon DNA 0.4 mg/ml
Reference: random background probes
Reading: higher = stronger binding
Constant ends, left off below: GCCTAGCAC … GTCTTGATTCGCTTGACGCTGCTG
Construct (chain): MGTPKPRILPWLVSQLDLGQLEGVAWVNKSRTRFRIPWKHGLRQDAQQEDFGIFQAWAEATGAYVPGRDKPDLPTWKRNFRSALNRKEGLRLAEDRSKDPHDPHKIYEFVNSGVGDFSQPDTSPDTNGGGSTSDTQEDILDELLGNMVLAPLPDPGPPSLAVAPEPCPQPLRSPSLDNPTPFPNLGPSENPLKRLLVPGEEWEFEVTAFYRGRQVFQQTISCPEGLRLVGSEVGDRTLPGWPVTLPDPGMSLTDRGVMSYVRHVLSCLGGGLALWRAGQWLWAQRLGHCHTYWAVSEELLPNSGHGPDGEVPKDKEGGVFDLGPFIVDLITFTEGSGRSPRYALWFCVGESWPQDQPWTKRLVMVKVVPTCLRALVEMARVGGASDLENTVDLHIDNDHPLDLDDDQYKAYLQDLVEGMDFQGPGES
| Strand | fitted relative affinity |
| --- | --- |
| TCATATATATTTATGTAACTGTGCTAG | 0.646 z-score |
| GACGGTATCGACTTTGGGGACGTGCTA | 0.767 z-score |
| TTAGTTATCGGGACTGGGTTAGTGCTA | 0.156 z-score |
| GACGCTTTCCTTATCCTGACGTGCTAG | 5.36 z-score |
| CACCACATTTTTTTCATTATGTGCTAG | 0.759 z-score |
| CACGATATCGGGACTGGAGACGTGCTA | 0.137 z-score |
| TAAGATTTCGGGACTGGATTAGTGCTA | 1.32 z-score |
| AGTGAATTAGGTTTCACTTTGTGCTAG | 3.64 z-score |
| CACCCCGCCCCTCCTTGGCCGTGCTAG | -0.235 z-score |
| GGCGGTTTCGACACTGGGGACGTGCTA | 3.06 z-score |
| GACGGTTTCCTTTTCCTGTCGTGCTAG | 11.4 z-score |
| GACGATATCAGTATCGAGTCGTGCTAG | 1.59 z-score |
| TCAATTTTCGTTTTTATACTGTGCTAG | 4.81 z-score |
| GACGGTTTCCTACTTCTGACGTGCTAG | 6.38 z-score |
| TTAGGGTTCGGGACTGGGTTAGTGCTA | -0.371 z-score |
| GACGGATTGGGGACTGGGGACGTGCTA | -0.651 z-score |
| GACGAACTGGGGACTGGAGAGGTGCTA | -0.735 z-score |

Study 6
Target: ABI1, truncated, D143A, DHFR fusion (Arabidopsis thaliana)
Technique: DHFR PCA, deep sequencing
Sample: yeast
Setting: methotrexate growth selection, single substitutions
Together with: (+)-ABA 0.11 µM
Reference: wild-type fitted maximum
Reading: higher = stronger binding
Starting sequence: PYL1, truncated, DHFR fusion (Arabidopsis thaliana); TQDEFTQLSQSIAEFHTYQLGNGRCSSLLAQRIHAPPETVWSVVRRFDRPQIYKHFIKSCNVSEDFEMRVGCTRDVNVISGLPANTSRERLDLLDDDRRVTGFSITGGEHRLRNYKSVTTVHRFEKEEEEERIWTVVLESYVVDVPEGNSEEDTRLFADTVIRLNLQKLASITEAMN; partner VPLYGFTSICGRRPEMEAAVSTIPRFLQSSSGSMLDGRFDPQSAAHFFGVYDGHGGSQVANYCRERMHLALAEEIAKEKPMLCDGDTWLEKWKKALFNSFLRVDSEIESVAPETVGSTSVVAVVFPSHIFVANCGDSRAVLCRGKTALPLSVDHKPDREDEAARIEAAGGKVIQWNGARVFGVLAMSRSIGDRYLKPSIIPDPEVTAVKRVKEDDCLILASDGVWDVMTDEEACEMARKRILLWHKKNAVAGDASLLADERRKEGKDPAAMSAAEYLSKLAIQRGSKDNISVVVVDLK
| Variant | relative binding score [%] |
| --- | --- |
| M176E | 9.78 |
| R46F | -9.46 |
| I162D | 0.803 |
| V43I | 48 |
| R111W | -0.741 |
| R24Q | 59.6 |
| V78Q | 12.1 |
| R46W | -1.56 |
| H55Y | 19.2 |
| N177A | 58.9 |
| F56S | -2.01 |
| G23D | 9.96 |

Study 7
Target: Sal-like protein 4, full length isoform A (SALL4, Homo sapiens, UniProt Q9UJQ4, residues 1-1053)
Sequence of UniProt Q9UJQ4 (whole entry, looked up): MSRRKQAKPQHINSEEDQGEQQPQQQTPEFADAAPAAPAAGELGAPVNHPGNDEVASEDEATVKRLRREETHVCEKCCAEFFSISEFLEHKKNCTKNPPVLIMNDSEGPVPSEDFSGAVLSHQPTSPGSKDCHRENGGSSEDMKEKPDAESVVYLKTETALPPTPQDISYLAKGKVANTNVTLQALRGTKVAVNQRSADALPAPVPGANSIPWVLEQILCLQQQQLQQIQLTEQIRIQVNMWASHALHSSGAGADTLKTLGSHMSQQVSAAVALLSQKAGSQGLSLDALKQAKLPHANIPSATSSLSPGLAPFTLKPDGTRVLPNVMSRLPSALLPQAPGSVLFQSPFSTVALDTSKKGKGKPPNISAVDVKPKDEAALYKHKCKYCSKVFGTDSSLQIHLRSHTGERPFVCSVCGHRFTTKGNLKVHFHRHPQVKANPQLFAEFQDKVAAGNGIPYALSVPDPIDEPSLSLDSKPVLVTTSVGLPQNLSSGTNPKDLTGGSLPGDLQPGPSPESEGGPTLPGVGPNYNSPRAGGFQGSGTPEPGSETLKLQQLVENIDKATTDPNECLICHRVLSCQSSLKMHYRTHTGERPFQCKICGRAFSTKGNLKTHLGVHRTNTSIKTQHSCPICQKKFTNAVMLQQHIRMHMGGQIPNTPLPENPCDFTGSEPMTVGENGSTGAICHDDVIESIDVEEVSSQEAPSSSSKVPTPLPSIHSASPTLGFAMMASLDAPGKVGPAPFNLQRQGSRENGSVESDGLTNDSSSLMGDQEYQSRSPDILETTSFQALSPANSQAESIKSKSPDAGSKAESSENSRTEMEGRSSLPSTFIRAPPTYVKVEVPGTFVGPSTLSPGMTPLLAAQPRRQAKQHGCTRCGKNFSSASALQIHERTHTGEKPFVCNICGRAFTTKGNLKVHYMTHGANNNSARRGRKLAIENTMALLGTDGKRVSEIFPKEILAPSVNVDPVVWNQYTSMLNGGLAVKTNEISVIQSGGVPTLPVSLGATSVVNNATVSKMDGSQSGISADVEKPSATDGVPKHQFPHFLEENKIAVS
Technique: universal PBM
Molecule type: double-stranded DNA, one strand shown
Sample: in vitro
Concentration: 600 nM
Setting: 8-mer, flanks averaged, mean of replicates
Reading: higher = stronger binding
| Strand | E-score |
| --- | --- |
| CGATGGCG | -0.317 |
| ACGCTTAC | -0.127 |
| AGCGTTGG | -0.171 |
| CAAAGTGC | -0.142 |
| CGCTAGAA | -0.0634 |
| ACGACCTC | -0.0603 |
| CAGGTCGC | -0.135 |
| CAGAACGC | -0.246 |
| CAGCACGG | -0.16 |
| GAATGTCC | -0.0667 |
| CATCGACC | -0.0703 |
| ATGCAAGA | 0.239 |
| CAGGTTAC | -0.0603 |
| CCACTGAC | -0.165 |
| AAACCGAT | 0.0255 |
| GGTGAGCA | -0.192 |
| CAACGCCA | -0.151 |
| GACAGGTA | 0.0106 |
| CACGCGGG | -0.271 |
| ACTTAGTA | 0.176 |
| CGGGGTCA | -0.23 |
| GATCAGCC | -0.292 |
| AGTAGCGA | -0.0248 |
| ATGCTACA | 0.116 |
| CAGAATGA | 0.146 |

Repeated from above (study 4):
| Variant | normalised enrichment score |
| --- | --- |
| STTRRRLFVVNDS [E10V] | 0.559 |
| SWTRRRLFVENDS [T2W] | 0.063 |
| STTRCRLFVENDS [R5C] | 0.322 |
| STTDRRLFVENDS [R4D] | -0.517 |
| STTRRTLFVENDS [R6T] | 0.0284 |
| STTRARLFVENDS [R5A] | 0.0252 |
| STTRRRNFVENDS [L7N] | -0.129 |
| FTTRRRLFVENDS [S1F] | 0.0736 |
| STTIRRLFVENDS [R4I] | 0.0618 |
| STTSRRLFVENDS [R4S] | -0.198 |
| STTRRRLFVENDA [S13A] | -0.032 |
| STTRRRLFVLNDS [E10L] | -0.117 |
| STTRRRLKVENDS [F8K] | 0.288 |
| STTRRRLEVENDS [F8E] | 0.402 |
| STTRRRLFVENDQ [S13Q] | -0.07 |
| NTTRRRLFVENDS [S1N] | 0.0671 |
| STTRRRLFVEKDS [N11K] | 0.147 |
| YTTRRRLFVENDS [S1Y] | -0.00153 |
| STTRRRLRVENDS [F8R] | 0.127 |
| STTRRRLFVSNDS [E10S] | 0.00613 |
| STTRRRLFVENLS [D12L] | -0.42 |
